Assay results gathered from unrelated publications.
Parts stem from different laboratories: compare values within a part only.

Series 1
Target: Cellular tumor antigen p53, full length (TP53, Homo sapiens, UniProt P04637, residues 1-393)
Method: protein-binding microarray
Molecule type: hairpin DNA
Sample: in vitro
Concentration: not given
Notes: whole hairpin DNA, median over replicate spots
Relative to: not given
Reading: higher = stronger binding
`CGGACATGCCCGGGCGTGTCTCCTGACACGCCCGGGCATGTCCGACACTC (5mC at 29)` has a median fluorescence of 16600 a.u.
The median fluorescence of `CGGACATGCCCGGGCGTGTCTCCTGACACGCCCGGGCATGTCCGACACTC (5mC at 15 29)` is reported as 15300 a.u.
The median fluorescence of `CCACGCGTGGTGGCATGCCTTCCTAGGCATGCCACCACGCGTGGACACTC (5mC at 4)` is reported as 8060 a.u.
`CGGACACGCCCGGGCATGTCTCCTGACATGCCCGGGCGTGTCCGACACTC (5mC at 7)` has a median fluorescence of 16700 a.u.
`CCACACGTGTTGGCATGCCTTCCTAGGCATGCCAACACGTGTGGACACTC` gave a median fluorescence of 7830 a.u.
`CGGAGATGCCCGGGCATGTCTCCTGACATGCCCGGGCATCTCCGACACTC` gave a median fluorescence of 13200 a.u.
`CGGACATGCCCCGGCATGTCTCCTGACATGCCGGGGCATGTCCGACACTC (5mC at 32)` gave a median fluorescence of 13100 a.u.
The median fluorescence of `CCACACGTGATGGCATGCCTTCCTAGGCATGCCATCACGTGTGGACACTC` is reported as 7180 a.u.

Series 2
Target: RING finger protein unkempt homolog, zinc fingers 1-6, GST-SBP tag (UNK, Homo sapiens, UniProt Q9C0B0, residues 30-357)
UniProt Q9C0B0, sequence (30-357, looked up): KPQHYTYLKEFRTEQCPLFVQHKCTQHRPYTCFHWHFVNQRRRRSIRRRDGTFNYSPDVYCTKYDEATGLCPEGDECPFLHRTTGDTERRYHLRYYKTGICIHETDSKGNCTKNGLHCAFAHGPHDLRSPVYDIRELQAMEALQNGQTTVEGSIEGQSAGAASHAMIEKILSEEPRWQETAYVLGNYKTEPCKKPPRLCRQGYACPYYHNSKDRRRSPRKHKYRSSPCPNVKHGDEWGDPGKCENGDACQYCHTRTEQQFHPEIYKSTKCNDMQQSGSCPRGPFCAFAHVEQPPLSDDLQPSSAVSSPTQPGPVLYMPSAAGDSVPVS
Method: RNA Bind-n-Seq
Molecule type: RNA
Sample: in vitro
Concentration: not given
Notes: RNA with constant flanks, human and mouse sites, ends assumed
Relative to: input RNA pool
Reading: higher = stronger binding
`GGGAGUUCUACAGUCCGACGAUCAAAGGCGCAAAGCUCAUCCUGAUCUUUCUGUUCCUAGGAGCCGUUCAGUCCAAUGCAUUGAUAGUUAAUUUGACAGAUUCAAAGGGUACUUGCCUUUAUGCAGAAUGGGAGAUGAAUUUCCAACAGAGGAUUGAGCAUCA` gave a bound/input enrichment of 0.182 ratio.
For `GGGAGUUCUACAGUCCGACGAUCAAAAUUUUAGAAGAGUUUAGGAAAACACAGCAGACAUCUCCUGAUAAAGUGGAUUAUGAAUAUAGUGAACUCCUCUUAUAUCAGAAUCAAGUUCUUCGGGAAGCAGGUCUUUAUAGAGAACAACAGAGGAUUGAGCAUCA`, the bound/input enrichment was 6.26 ratio.
`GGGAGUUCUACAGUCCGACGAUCAUAAUAAGGGCUGAUUGUUUUCUCAUAGCUGUUUACAAUGAACGCUGAUGCUGUCUAAAGGAGCGAUGUUUGGCGUUGCUGUGCAGCGGGUGGGCAGCAGGUGGCGAUGUUGCUCCUCCCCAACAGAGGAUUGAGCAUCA` has a bound/input enrichment of 8.88 ratio.
`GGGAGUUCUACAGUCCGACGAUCAACAAUGAAACCAACAACAAACAUUUUUAAAAUUAAAAUGGAUAAUUUGUAAAUAGUUUUUAGCUUUUAAAAUUUAAAGUGUUUUUGAGUGUGAAAAGUUGAGUAAAACUAUUUGCAACUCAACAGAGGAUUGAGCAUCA` has a bound/input enrichment of 2.02 ratio.
The bound/input enrichment of `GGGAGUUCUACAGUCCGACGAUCGUGAUGUCAAAGAGAACUAUCUUGAAACAUUUAUUUCCAGUCCAAAAUGGAGCUUUAUAUUGUGUUUGUCAUAAAUCUACGUAUUCUCCUCUACCAGAUGACUAUAAUUGCAACGUAGAGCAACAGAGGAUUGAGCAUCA` is reported as 0.401 ratio.
`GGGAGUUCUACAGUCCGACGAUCCCUCAGAAGAGGAAUCUUGCUUCUUUAAAGCUCUCAUGGUGCUUUCAUUUUAAAGGAGACUUUAGAAGAAAAAGAAUGGAAUGAAGUUUUGAGUUACAAUUCAAAUUUGGGGAUCAAUCCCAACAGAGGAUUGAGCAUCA` gave a bound/input enrichment of 0.101 ratio.
With `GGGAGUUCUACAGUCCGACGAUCUUUGGUGGGUUUGUCACUGAGCCUCAGGAGGAGUCUGAAGAAGAAGUAGAGGAACCUGAAGAAAGACAGCAAACACCUGAGGUGGUACCUGAUGAUUCUGGAACUUUCUAUGAUCAGGCACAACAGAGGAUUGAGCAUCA` the bound/input enrichment was 0.17 ratio.
For `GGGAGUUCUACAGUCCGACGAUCGACACUCUCAUCAAGACAUUUGUGCGCUCACAGACUGCCCAGGUACAUGAUGGGAAAGGUAUUAGGUUUACUGCUAACGAGGACAUUCGGCCAGAAAAGGGGGCUGGUGUGGAUGACCCCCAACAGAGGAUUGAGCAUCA`, the bound/input enrichment was 0.398 ratio.

Series 3
Target: Centromere-binding protein 1, full length, His-tagged (CBF1, Saccharomyces cerevisiae, UniProt P17106, residues 1-351)
UniProt P17106, sequence (whole entry, looked up): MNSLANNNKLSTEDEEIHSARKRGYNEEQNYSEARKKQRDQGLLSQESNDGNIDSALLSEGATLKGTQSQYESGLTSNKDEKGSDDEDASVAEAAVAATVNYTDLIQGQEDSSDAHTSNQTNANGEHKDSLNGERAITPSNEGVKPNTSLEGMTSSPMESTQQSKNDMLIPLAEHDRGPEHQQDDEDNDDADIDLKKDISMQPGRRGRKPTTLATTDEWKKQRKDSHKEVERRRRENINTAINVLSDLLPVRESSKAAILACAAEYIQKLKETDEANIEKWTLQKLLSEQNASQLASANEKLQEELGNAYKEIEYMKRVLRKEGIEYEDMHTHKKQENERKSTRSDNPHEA
Method: competition protein-binding microarray
Molecule type: double-stranded DNA, one strand shown
Sample: in vitro
Concentration: 2 µM
Notes: whole 60-bp probe, lowest competitor level
With: Pho4 competitor, 0.05 µM
Reading: higher = stronger binding
With `CGTTATTGATATCGGCACGCAATGGTACTGGGGCAAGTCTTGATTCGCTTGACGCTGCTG` the fluorescence intensity was 67.3 a.u.
`GACGCCAAGTCCCATCACGTGGTTACGATGTATCGGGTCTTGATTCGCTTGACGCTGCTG` gave a fluorescence intensity of 3500 a.u.
`GAACGTTAGTACTTGACCGTGCAATAATGGGAAGCAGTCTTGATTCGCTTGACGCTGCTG` has a fluorescence intensity of 75.2 a.u.
`CGTTATTTACTTCCACACGTGCTTTAAATGATGTGAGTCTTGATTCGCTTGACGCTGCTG` gave a fluorescence intensity of 2240 a.u.
`GTCTTGTCTCATTGTTAGGTGGGTGTCCCCACTTCAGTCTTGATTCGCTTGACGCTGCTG` has a fluorescence intensity of 100 a.u.
`TGCGGTGTAACGGTCCCCGTGCGGAAGTCAACGGAAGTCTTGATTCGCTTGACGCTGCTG` gave a fluorescence intensity of 97.6 a.u.
For `CATACCCAACCTTGCTCCGTGGGTGAAGATATTTGTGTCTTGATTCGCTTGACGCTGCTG`, the fluorescence intensity was 60 a.u.
`AGAAGGTCAAGGAATCTCGTGATGGCATCAAACTAGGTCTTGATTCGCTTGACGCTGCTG` has a fluorescence intensity of 324 a.u.

Single results of other studies
CN(C)CCCn1cc(C2=C(c3c[nH]c4ccccc34)C(=O)NC2=O)c2ccccc21 has a remaining activity of 85.2% (Cyclin-dependent kinase 2, with cyclin A (CDK2, Homo sapiens, UniProt P24941); enzyme activity, inhibitor; 0.5 µM; relative to: control).

Excerpt of the above (series 3):
For `CATACCCAACCTTGCTCCGTGGGTGAAGATATTTGTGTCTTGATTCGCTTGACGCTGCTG`, the fluorescence intensity was 60 a.u.
`AGAAGGTCAAGGAATCTCGTGATGGCATCAAACTAGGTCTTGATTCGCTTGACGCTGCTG` has a fluorescence intensity of 324 a.u.
